Experimental data collected from several papers.
Numbered parts are unrelated; each lists some results of a single study. Changes are numbered by the printed parent chain.

Study 1
Target: PABPC1L2, full length, GST fusion (mouse, UniProt A0ABA7IW68)
Method: RNAcompete
Form: RNA
Matrix: in vitro
Tested at: 20 nM
Notes: 7-mer, probes averaged, single round
Baseline: mean of 7-mers
Direction: higher = stronger binding
Construct (chain): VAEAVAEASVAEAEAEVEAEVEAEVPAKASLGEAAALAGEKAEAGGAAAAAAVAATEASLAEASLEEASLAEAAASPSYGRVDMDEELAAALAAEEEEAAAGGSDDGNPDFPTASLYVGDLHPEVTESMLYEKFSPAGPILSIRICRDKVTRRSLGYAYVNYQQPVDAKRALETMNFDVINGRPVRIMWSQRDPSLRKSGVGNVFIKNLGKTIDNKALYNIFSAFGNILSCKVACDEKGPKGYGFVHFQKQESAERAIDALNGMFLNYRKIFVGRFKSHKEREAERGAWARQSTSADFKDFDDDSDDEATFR
Sequence | 7-mer Z-score
GACCAUG | 0.0279
UGAACCG | -0.166
CCAGCCG | -0.374
CCGGCUA | -0.26
AUCUCGG | -0.0808
UUCAUUU | -0.224
UCGCUAU | -0.309
AAAGUGG | 2.15

Study 2
Target: UDP-N-acetylglucosamine--peptide N-acetylglucosaminyltransferase 110 kDa subunit (OGT, Homo sapiens, UniProt O15294)
Chain of UniProt O15294 (whole entry, looked up): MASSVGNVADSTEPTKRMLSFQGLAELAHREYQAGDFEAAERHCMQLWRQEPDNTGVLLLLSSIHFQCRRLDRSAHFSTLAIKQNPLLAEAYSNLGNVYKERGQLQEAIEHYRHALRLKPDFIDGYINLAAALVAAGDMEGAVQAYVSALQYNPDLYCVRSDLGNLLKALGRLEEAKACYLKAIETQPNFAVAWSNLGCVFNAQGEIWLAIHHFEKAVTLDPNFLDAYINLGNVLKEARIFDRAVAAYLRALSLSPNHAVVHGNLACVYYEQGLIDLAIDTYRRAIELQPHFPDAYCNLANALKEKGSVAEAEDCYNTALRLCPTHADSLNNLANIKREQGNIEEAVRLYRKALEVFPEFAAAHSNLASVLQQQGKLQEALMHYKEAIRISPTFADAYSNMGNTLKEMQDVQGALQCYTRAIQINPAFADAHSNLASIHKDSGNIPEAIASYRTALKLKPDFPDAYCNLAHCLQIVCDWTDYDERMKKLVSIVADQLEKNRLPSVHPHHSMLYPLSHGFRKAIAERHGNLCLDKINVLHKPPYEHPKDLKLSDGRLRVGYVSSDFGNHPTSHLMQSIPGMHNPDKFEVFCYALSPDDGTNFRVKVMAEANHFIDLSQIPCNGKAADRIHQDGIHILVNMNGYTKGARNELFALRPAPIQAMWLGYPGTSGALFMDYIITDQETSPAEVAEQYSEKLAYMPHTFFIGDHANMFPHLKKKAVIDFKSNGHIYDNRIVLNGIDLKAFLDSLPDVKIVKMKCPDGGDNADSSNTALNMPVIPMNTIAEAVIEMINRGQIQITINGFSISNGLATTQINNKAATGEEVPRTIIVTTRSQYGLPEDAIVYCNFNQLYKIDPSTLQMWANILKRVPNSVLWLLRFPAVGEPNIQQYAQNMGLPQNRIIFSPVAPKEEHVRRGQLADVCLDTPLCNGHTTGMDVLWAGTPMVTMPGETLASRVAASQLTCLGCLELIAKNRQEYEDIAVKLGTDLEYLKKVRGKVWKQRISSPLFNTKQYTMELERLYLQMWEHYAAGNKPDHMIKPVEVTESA
Observed: phage display binding
Method: phage display panning NGS
Form: peptide
Baseline: OGT-panned over input library
Sequence | log2 fold enrichment
FVHDQHKQHYHIVAH | 6.17
TWFQHPSNPSHINQS | 2.56
YGEGYITRHTTYHQH | 2.22
HSWQHHHIMYEVGEG | 3.32
HSDHSHQNHHPPHIR | 3.09
HYDHNQWIHSSFHDH | 2.33
DTYEPVYQITPRADT | 2.09
TMKHRPATAWGIHHH | 4.13
YLIEPPKRHHHYHN | 3.24
NFLPFYAIQTFNNAT | 2.26
EPRHLYHIHQDHRQT | 2.7
VPYKHWHVHRGDDHF | 2.67
QMDGMFPPKYQINSF | 3.58
HSWHYYHIEHTAAHE | 2.63
HSYHHDSVHAGHNIV | 2.26
HVTHMHLHRQSDGI | 2.97
HYRSHHTPTQYYYAN | 2.75

Study 3
Target: tungstate, free oxyanion
Method: microfluidic competitive inhibition
Matrix: in vitro, cell-free expressed
Tested at: not given
Notes: derived from inhibition constants, unchanged parent 2230 nM
Direction: lower = stronger binding
Starting sequence: PafA, mature enzyme, eGFP fusion (Elizabethkingia meningoseptica, UniProt Q9KJX5); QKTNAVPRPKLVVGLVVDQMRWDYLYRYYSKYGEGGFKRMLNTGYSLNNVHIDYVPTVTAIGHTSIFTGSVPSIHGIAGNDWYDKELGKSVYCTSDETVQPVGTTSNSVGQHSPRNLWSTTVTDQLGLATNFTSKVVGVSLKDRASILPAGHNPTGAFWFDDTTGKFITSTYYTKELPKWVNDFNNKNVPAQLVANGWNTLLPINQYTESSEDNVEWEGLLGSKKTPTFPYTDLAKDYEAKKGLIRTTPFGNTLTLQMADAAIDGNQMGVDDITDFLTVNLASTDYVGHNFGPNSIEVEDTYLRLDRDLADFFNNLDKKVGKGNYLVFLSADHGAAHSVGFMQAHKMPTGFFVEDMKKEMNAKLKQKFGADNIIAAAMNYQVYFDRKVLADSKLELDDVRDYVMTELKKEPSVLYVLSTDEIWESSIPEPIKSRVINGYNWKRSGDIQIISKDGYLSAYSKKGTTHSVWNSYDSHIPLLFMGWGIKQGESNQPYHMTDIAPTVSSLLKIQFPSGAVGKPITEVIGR
Substitution | oxyanion analog dissociation constant
L309V | 2.47 µM
T94V | 1.49 µM
P249V | 1.84 µM
S474G | 2.18 µM
K241G | 2.1 µM
L316G | 1.29 µM
D311V | 2.26 µM
Q381G | 1.89 µM
V279A | 2 µM
L177G | 1.74 µM
Y286G | 1.3 µM
K367G | 1.94 µM
M40G | 2.9 µM
F158V | 2.11 µM
R39V | 2.19 µM
Y24G | 3.51 µM
E212V | 2.91 µM
T133V | 2.29 µM
Y439V | 2.1 µM
L87G | 1.64 µM
E297V | 553 nM
M360V | 2.06 µM
K442V | 2.09 µM
V413G | 1.7 µM
G79V | 681 nM

Study 4
Target: Protein C-ets-1 (ETS1, Homo sapiens, UniProt P14921, residues 1-441, Y397A, full length assumed)
Chain of UniProt P14921 (whole entry, unmodified, looked up): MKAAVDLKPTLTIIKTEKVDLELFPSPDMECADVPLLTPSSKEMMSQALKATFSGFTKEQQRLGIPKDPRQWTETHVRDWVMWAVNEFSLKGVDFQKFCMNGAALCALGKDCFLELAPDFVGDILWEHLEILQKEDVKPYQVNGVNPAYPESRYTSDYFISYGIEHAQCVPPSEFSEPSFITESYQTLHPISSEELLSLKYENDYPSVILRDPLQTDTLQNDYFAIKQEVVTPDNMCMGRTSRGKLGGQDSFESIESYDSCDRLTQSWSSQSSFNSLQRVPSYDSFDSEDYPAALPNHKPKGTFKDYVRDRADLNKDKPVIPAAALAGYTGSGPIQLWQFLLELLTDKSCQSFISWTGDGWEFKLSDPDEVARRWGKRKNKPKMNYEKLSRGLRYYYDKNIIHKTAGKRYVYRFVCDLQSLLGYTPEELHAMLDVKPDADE
Method: protein-binding microarray
Form: double-stranded DNA, one strand shown
Matrix: in vitro
Tested at: not given
Notes: k-mer, scored over probes, only values ≥0.25
Direction: higher = stronger binding
Sequence | E-score
CCAGCAAA | 0.316
CAACGACA | 0.263
ACATTTCC | 0.318
ACGACAAT | 0.295
TACAACAA | 0.272
ACGTCGAC | 0.283
ATCCGGCG | 0.31
AACATCCG | 0.437

A few entries again (study 3):
Substitution | oxyanion analog dissociation constant
D311V | 2.26 µM
Q381G | 1.89 µM
V279A | 2 µM
L177G | 1.74 µM
Y286G | 1.3 µM
K367G | 1.94 µM
M40G | 2.9 µM
F158V | 2.11 µM
R39V | 2.19 µM
Y24G | 3.51 µM
